Assay results pooled from the literature.
Each numbered part is a random draw from the data of one study; scales do not carry over between parts.

Block 1 — method: RNA Bind-n-Seq; molecule type: RNA; medium: in vitro; concentration: 1 µM; notes: whole 134-nt RNA, ends assumed; with: 150 mM KCl; relative to: input library; direction: higher = stronger binding
Target: Ras GTPase-activating protein-binding protein 1, C-terminal RGG region (G3BP1, Homo sapiens, UniProt Q13283)
Sequence of UniProt Q13283 (whole entry, looked up): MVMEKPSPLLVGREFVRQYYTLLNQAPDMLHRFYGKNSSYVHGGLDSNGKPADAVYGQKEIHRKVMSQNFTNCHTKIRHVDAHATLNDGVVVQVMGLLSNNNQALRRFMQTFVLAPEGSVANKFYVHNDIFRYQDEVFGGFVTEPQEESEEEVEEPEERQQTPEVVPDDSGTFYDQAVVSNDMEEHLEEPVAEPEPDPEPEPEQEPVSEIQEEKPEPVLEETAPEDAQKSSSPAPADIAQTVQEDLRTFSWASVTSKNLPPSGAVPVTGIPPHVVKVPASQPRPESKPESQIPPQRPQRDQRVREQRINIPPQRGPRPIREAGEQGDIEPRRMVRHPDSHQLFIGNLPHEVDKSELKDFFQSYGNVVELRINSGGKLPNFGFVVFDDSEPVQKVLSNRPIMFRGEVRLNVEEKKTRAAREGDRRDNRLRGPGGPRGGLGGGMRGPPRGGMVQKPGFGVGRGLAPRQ
All sequences stand within: GGGAGUUCUACAGUCCGACGAUC … UGGAAUUCUCGGGUGUCAAGG
`UUAAAGAAGAGGGUGUGCGGGACGUCCUUAAGGAUGUACUGCUCCCAUGGUACAAUGCCUAUCGCUUCUUAAUCCAGAACGUUCUGAGGC` gave a log2 enrichment of -1.68.
The log2 enrichment of `CACAGACAACGCGCACCCACACAGACACAGAGGGAAGGGGUUGGGAUGGGGACAGGGUGCACAGCAGGGCGGGGUAGGACCCCAGCCCCU` is reported as -0.253.
The log2 enrichment of `GCAGGAAGUAAAAACAAAUGGAAAUGGUUCGGAUAGUGGCAGGGGUGGGGGUUGCUAAGGAAAGGGUGGGAUGGGAGUGGGUAAAGAGUU` is reported as 1.86.
With `CACAGACAACACGCACCCACACAGACACAGAGGGAAGGGGUUGGGAUGGGGACUGGGUGCACAGCAGGGCGGGGUAGGACCCCAGCCCCU` the log2 enrichment was 1.13.
For `UCCUCAAGUCCUGUGCUACACAUCGUAUGUACCGAAUCGGGCGGCGGGCGGAAAGUAUUAUGUUACGCCGUUCGGAUCUGCACUUCCAGC`, the log2 enrichment was -1.2.
The log2 enrichment of `UCCUCAAGUCCUGUGCUACACAUCGUAUGUACCGAAUCGGGAGGAGGGAGGGAAAGUAUUAUGUUACGCCGUUCGGAUCUGCACUUCCAG` is reported as 1.21.
`GCAGGAAGUAAAAACAAAUGGAAAUGCUUCGGAUAGUGGCAGGGAAAGGGGUUGCUAAGGAAAGGGUGGGAUGGGAGUGGGUAAAGAGUU` gave a log2 enrichment of 2.1.
`UCCUGUGCUACACAUCGUAUGUACCGAAUCGGGGUUUUUGGGGAAAAAAAGGGGAGGGGAAAGUAUUAUGUUACGCCGUUCGGAUCUGCA` has a log2 enrichment of 1.67.
For `CACAGACAACACGCACCCACACAGACACAGAGAGAAGGGGUUGGGAUGGGGACAGGGUGCACAGCAGGGCGGGGUAGGACCCCAGCCCCU`, the log2 enrichment was -0.173.
For `CUCAAGUCCUGUGCUACACAUCGUAUGUACCGAAUCGGGUGGGAGGGUUUGGGAAAGUAUUAUGUUACGCCGUUCGGAUCUGCACUUCCA`, the log2 enrichment was 2.09.

Block 2 — method: universal PBM; molecule type: double-stranded DNA, one strand shown; medium: in vitro; concentration: 600 nM; direction: higher = stronger binding
Target: Sal-like protein 4, full length isoform A (SALL4, Homo sapiens, UniProt Q9UJQ4, residues 1-1053)
Sequence of UniProt Q9UJQ4 (whole entry, looked up): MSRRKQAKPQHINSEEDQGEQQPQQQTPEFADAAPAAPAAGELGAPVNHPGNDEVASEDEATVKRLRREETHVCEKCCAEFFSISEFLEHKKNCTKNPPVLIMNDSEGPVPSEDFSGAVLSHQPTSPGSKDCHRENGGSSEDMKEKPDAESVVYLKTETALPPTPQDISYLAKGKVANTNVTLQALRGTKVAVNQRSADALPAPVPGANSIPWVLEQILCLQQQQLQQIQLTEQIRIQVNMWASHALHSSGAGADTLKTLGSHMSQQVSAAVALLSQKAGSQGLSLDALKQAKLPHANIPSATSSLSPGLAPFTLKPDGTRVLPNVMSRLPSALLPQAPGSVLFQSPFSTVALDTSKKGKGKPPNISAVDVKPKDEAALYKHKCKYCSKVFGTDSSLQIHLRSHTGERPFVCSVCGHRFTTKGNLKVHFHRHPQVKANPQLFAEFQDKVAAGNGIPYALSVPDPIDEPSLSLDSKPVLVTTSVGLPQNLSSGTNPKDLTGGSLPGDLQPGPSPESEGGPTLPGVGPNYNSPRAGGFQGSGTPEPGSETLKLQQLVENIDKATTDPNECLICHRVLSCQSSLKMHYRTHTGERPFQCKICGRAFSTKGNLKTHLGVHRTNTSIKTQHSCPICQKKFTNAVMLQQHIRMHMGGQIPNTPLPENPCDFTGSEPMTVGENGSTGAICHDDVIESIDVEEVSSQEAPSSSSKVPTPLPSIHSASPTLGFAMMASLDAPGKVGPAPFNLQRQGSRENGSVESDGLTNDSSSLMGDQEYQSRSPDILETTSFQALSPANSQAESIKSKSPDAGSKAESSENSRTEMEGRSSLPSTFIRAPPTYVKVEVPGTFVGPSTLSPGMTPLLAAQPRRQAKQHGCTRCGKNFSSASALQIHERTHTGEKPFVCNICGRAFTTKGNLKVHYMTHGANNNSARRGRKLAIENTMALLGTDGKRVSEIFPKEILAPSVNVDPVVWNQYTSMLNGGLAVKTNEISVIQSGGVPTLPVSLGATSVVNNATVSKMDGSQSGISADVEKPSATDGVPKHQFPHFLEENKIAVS
Notes: 8-mer, flanks averaged, mean of replicates
With `GAAATCGA` the E-score was 0.0375.
For `CTGAACAG`, the E-score was -0.0846.
`CGCACGCG` has an E-score of -0.266.
With `TACATGCA` the E-score was 0.0859.
With `CCGGGGTA` the E-score was -0.137.
With `CGCAAGAC` the E-score was -0.0565.
With `TGCGGGAA` the E-score was -0.11.
The E-score of `AACTTCTA` is reported as 0.109.
`ACTAACCT` gave an E-score of 0.0159.
The E-score of `ATGTGCGA` is reported as -0.0439.
`GCGCAGTA` has an E-score of -0.0637.
`GGTCCACA` gave an E-score of -0.203.
`CTTTCCGA` gave an E-score of -0.00556.
With `CAAAGGAA` the E-score was 0.219.
With `AAGAGCGT` the E-score was 0.0524.
With `AGAGAAGA` the E-score was 0.0533.
`ACTCAATG` has an E-score of 0.114.
For `ACCGCAGA`, the E-score was -0.148.
`CCAGGTCG` has an E-score of -0.304.
For `TACCTATA`, the E-score was 0.212.

Block 3 — method: protein binding microarray; molecule type: double-stranded DNA, one strand shown; medium: in vitro; concentration: not given; relative to: not given; direction: higher = stronger binding
Target: Histone acetyltransferase KAT6A, both winged helices, GST fusion (KAT6A, Homo sapiens, UniProt Q92794, residues 1-181)
Notes: 8-mer, flanks averaged, mean of 2 arrays, mostly near background
Target sequence (chain): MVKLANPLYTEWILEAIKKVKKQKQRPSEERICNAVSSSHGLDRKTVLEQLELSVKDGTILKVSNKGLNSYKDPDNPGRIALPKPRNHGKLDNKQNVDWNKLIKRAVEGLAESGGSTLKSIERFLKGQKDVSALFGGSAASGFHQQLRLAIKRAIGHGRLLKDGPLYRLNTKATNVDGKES
With `CAGCAACA` the E-score was -0.17.
For `AGGGTTAA`, the E-score was -0.167.
`ATGCAACC` gave an E-score of 0.00872.
The E-score of `AATGCCCC` is reported as -0.183.
With `ACATCGGA` the E-score was 0.0247.
`GCGTTACC` gave an E-score of 0.218.
The E-score of `AGAAGTAG` is reported as -0.191.
The E-score of `GAGGGCAC` is reported as -0.102.
The E-score of `CGAAGGAG` is reported as -0.0304.
With `ACAGGCAC` the E-score was -0.0718.
`GAACGGGC` has an E-score of 0.163.
`ACGCTGAC` has an E-score of 0.0519.
The E-score of `AAGCCACC` is reported as -0.193.
For `ACACACGG`, the E-score was 0.221.
With `AACCACAG` the E-score was -0.193.
The E-score of `CGGGGCAG` is reported as 0.166.

Block 4 — method: RNA Bind-n-Seq; molecule type: RNA; medium: in vitro; concentration: 365 nM; relative to: no-protein control; direction: higher = stronger binding
Target: RNA binding protein fox-1 homolog 2, RRM domain, GST-SBP tag (RBFOX2, Homo sapiens, UniProt O43251-10, residues 100-194)
Notes: natural RNA segment, single round, ends assumed
All sequences stand within: GGGAGUUCUACAGUCCGACGAUC … UGGAAUUCUCGGGUGCCAA
Residues (chain): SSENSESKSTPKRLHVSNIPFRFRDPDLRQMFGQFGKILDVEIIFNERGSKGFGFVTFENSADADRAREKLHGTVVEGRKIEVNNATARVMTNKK
Under “RBNS enrichment (R)”, `UUAUUAAAAAGAAAAAAGCCAAAAAGAAAAAAAAAAAAAGCAAGCCACCUCUCUCUUUCUUUUCUUGCUCUCUUUUUCUUUCUCUCUCUCUCAAGUUUGUGCAGGGAGAU` is recorded as 1.07.
`AAAAUAAAAAUAAAAAAUCCUCACCUCAACAUAGGUCUCUUUCAAAGGGAGAUUUCAAGCCACCUGACUUCUUCAGUUUAGUCUUCACCCAGGGUCAGAGCGCACAGCUU` — result for “RBNS enrichment (R)”: 0.711.
`CAGCUAACCAACUGCAUUACCCAAACCAUAUUGCACUUUUAGUUCCCUAGUUUUCUAGGUGAGCUUCAUUCCCUGAAAGGAGGAUGAUGAUAUCUAGGCAUAACCUAGCC` — result for “RBNS enrichment (R)”: 0.467.
`GCUGUGCCAGCGCCGGGCCUUGGAAGCCUUUGACCUGGAUCCUGCACAGUGGGGAGUCAAUGUCCAGCCCUACUCCGGGUCCCCAGCCAACCUGGCCGUCUACACAGCCC`: “RBNS enrichment (R)” 0.344.
For `CCCUUUUGUCAAAAAGGUAGAUAUUCAUAAUUGUACAUUCAGCAUUGUAAAUACCAUAUGAAAUCCUUUUUGAUUAAAGCUAUUCAAAAUAAAAAAUUUUAAUGAAUUAA`, “RBNS enrichment (R)” read 1.43.
`CCUGGGGUUUGAGAAAGCCUGGUGGAGGAGUGUGGUGGUGUGAGUGGAGACUGGCUGGCAUUCCUCCAGCACUCUGCAGACUUCUUCCUGGGCCCGAGGCUAUGGAGCCU`: “RBNS enrichment (R)” 1.24.
For `AAGCACAAAGGCCAGCGUGACAGCAGCGCCAUGCUCAUCCCCCUCACAGGACACUUCACUGCCAUUUUCUAUGCACAUGGAAGAAUAAUAAAUGUGGAAAUUUCAUCCUG`, “RBNS enrichment (R)” read 0.438.
Under “RBNS enrichment (R)”, `UAAGAAAUGUGAUGUAGCCGGGCGUGGUGGCACACGCCUUUAAUCCCAGCACUUGGGAGGCAGACGCAGGUGAAUUUCUGAGUUUGAGGCCAGCCUGGUCUACAGAGUGA` is recorded as 0.399.
`CUUCCUGCACUUAACAAUAUGAAAUAGAAACUUUUGUCUUUACUGAGAUGAGGAUAUGUUUGAGAUGCACAGUUGGAUAAUGUGGGAAAAUGACAUCUAAGCUUUACCUG` — result for “RBNS enrichment (R)”: 0.346.
`CAACCACCCUGGGCCCAGAAACAGAGGCCUGCCGAGGGGAGGAGCCUGGCCUCUGUCCACCCGUCAGCAGUGUGAAGUCUGUUGUGUUUGAGCUUCUCAGAGUGGAAUGA` — result for “RBNS enrichment (R)”: 1.4.
`GCUUUUCUCCAUCUGGGGACAGUCCUACUCCAAGAACACUGCACACCAGCUCCUCACACAGAUCCCACUUACUCUUUUUUUUUUUUUCAGAGACCACAGACCACAGUGAU`: “RBNS enrichment (R)” 0.477.
`AGAGAGAAAUGCCAUCAUGCUUACUGCUCUUUUGGAUUCUUCAUGCAGUGGCUUCCCAUUUGCUCUGGGAACAGUGCCUCUGUGCUGGUUAUAUGUAUGCACCACAUGUG` — result for “RBNS enrichment (R)”: 0.576.

A few entries again (block 2):
With `TACATGCA` the E-score was 0.0859.
`CTTTCCGA` gave an E-score of -0.00556.
With `AAGAGCGT` the E-score was 0.0524.
With `CGCAAGAC` the E-score was -0.0565.
With `GAAATCGA` the E-score was 0.0375.
`ACTAACCT` gave an E-score of 0.0159.
`CGCACGCG` has an E-score of -0.266.
